{"data": "Published values gathered from unrelated publications", "note": "A part holds a random share of what one study measured."}
{"data": "Series 1", "target": "Prothrombin, mature alpha-thrombin (F2, Homo sapiens, UniProt P00734)", "method": "aptamer microarray, sandwich", "molecule type": "DNA with 2'F-ANA", "sample": "in vitro", "tested at": "200 nM", "setting": "whole 15-mer aptamer, many near background", "together with": "Cy3 exosite-II aptamer, 400 nM", "direction": "higher = stronger binding", "strand": "GGTTGGTGTGGTTGG"}
{"Modification": "2'F-ANA at 2 3 5 9 11 12 14 15", "mean fluorescence intensity": "53.6 a.u."}
{"Modification": "2'F-ANA at 2 3 4 5 11 13 14", "mean fluorescence intensity": "61.8 a.u."}
{"Modification": "2'F-ANA at 5 6 9", "mean fluorescence intensity": "78.9 a.u."}
{"Modification": "2'F-ANA at 2 3 4 5 7 8 9 12 13 15", "mean fluorescence intensity": "120 a.u."}
{"Modification": "2'F-ANA at 1 2 6 7 9 10 11 13", "mean fluorescence intensity": "48.8 a.u."}
{"Modification": "2'F-ANA at 1 3 5 8 9 11 13 15", "mean fluorescence intensity": "53.9 a.u."}
{"data": "Series 2", "target": "Sal-like protein 4, full length isoform A (SALL4, Homo sapiens, UniProt Q9UJQ4, residues 1-1053)", "method": "universal PBM", "molecule type": "double-stranded DNA, one strand shown", "sample": "in vitro", "tested at": "600 nM", "setting": "8-mer, flanks averaged, mean of replicates", "direction": "higher = stronger binding", "UniProt Q9UJQ4, sequence (whole entry, looked up)": "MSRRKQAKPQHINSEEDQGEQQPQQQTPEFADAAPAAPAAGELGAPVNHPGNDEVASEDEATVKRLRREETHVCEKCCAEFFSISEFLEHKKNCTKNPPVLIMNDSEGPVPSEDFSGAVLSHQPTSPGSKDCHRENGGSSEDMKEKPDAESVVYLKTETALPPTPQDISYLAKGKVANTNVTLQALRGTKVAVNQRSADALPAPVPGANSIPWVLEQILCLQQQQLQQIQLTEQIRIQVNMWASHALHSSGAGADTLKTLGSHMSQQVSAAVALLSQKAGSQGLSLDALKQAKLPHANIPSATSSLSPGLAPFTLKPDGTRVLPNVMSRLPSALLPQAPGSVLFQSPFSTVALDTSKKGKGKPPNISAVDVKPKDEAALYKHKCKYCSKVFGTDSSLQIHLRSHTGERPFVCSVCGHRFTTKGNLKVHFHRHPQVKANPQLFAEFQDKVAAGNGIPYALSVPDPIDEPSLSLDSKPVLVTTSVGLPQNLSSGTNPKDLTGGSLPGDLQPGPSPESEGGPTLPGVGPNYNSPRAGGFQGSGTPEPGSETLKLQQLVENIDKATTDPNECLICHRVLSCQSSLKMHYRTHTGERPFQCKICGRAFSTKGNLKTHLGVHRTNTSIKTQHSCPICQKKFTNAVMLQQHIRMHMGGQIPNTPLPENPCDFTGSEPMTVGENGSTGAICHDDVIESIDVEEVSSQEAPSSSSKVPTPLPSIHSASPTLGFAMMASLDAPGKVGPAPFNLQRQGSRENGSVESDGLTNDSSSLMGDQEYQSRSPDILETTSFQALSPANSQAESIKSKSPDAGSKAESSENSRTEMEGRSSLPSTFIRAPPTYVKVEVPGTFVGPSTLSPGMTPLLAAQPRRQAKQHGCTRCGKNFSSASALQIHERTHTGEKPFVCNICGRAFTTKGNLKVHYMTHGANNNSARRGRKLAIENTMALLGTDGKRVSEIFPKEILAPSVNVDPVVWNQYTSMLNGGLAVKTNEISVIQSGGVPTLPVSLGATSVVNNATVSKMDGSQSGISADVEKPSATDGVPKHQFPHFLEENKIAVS"}
{"Strand": "AGGACCTG", "E-score": -0.204}
{"Strand": "AAGGCCGA", "E-score": -0.178}
{"Strand": "CTCCAGTA", "E-score": 0.0833}
{"Strand": "ACCGTACC", "E-score": -0.259}
{"Strand": "AAACCACA", "E-score": 0.113}
{"Strand": "ACTGTTTC", "E-score": -0.0136}
{"Strand": "CGACCTAC", "E-score": -0.305}
{"data": "Series 3", "target": "RNA binding protein fox-1 homolog 2, RRM domain, GST-SBP tag (RBFOX2, Homo sapiens, UniProt O43251-10, residues 100-194)", "method": "RNA Bind-n-Seq", "molecule type": "RNA", "sample": "in vitro", "tested at": "365 nM", "setting": "natural RNA segment, single round, ends assumed", "reference": "no-protein control", "direction": "higher = stronger binding", "shared flanks, not repeated": "GGGAGUUCUACAGUCCGACGAUC … UGGAAUUCUCGGGUGCCAA", "Construct (chain)": "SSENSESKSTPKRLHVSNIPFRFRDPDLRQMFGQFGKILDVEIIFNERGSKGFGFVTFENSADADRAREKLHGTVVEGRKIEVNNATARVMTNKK"}
{"Strand": "AUUCUUUGUGUAUUGAUUACUAUAUAUAGACAUCUAAGAGGUUAAUUAUUGAUCAAGAAGACAGGUUUGUUUCCUAAUUAGCACACCCUGACUUCACUCAUUUGCUUUCU", "RBNS enrichment (R)": 0.747}
{"Strand": "UUUUAUGUUUACCAUGUGAGUCCUGCAACACUAAAGAUAUUUUGAAUAUCAGUCAUGAUGGCAAUUUCUGUAUAAAAGAGCCUUAAAUGGAACAUUGUUUUGAGAUCAAA", "RBNS enrichment (R)": 0.488}
{"Strand": "AGAAAUUGCUGGAUAGCGAAGUGCCACUGGGUUCUUUGCCCUCCCUUCACACCAUGGGAUAAAUCUGUAUCAAGACGGUUCUUUUCUAGAUUUCCUCUACCUUUUUGCUC", "RBNS enrichment (R)": 0.347}
{"Strand": "CCUUUGCUUUCACACAGCAUAGCUUAUAAUUUGAUUAUGUUUCCUUCUUCAUGGGAAAUGUUAAAAGUUUAGCAUGUAACAUGUAAAUAUGUUGUACUUAAUGUUGAUCU", "RBNS enrichment (R)": 2.54}
{"Strand": "UUUGGGGAAAACAUUGCUUUUGGUCCCCCUCCCCAAUAUGCACACCUGCCUUUGCCACUACAUAGGCUGCCUCUGGGCUGUUGGAAGCUCUUCAGUGAGCCUAAGUCUUG", "RBNS enrichment (R)": 0.531}
{"data": "Single results of other studies"}
{"Substance": "PhoQ, residues 284 288 289 292 302 303 SMYGEC", "target": "PhoP, residues 12 14 15 18 19 YHFSH (Escherichia coli, UniProt P23836)", "assay": "Sort-seq, measured: YFP reporter", "test system": "E. coli", "conditions": "PhoQ-PhoP variant library, together with: 10 µM Mg2+", "how to read": "reference: high Mg2+ state, higher = stronger signaling", "quantity": "fold induction", "value": 2.57}
